Results gathered from unrelated publications.
Lines come from different studies, so protocols differ. Numbers after ± are the reported error.

Structure (SMILES)	organism	test	system	conditions	scale	EC50
C=CCSc1nnc([C@H](Cc2ccccc2)NC(=O)Cc2c(C)[nH]c3ccccc23)n1-c1ccc(OC)cc1	HIV-2	HIV-2-induced cytopathicity, MTT	MT-4, wild type			3.94 ± 1.17 µM
CC1(CCCCCCCCCCCCOCCCOP(=O)(O)CO[C@H](CO)Cn2ccc(N)nc2=O)COC1	human gammaherpesvirus 8	qPCR	BCBL-1	7 days		0.03 ± 0.01 µM
COc1ccc(-n2c(SCCF)nnc2[C@H](Cc2ccccc2)NC(=O)Cc2c(C)[nH]c3ccccc23)cc1	HIV-2	HIV-2-induced cytopathicity, MTT	MT-4, wild type			4.07 ± 0.87 µM
CCCCCCC[C@@H](CC(=O)O)OC(=O)C[C@@H](CCCCCCC)O[C@@H]1O[C@@H](C)[C@H](O)[C@@H](O)[C@H]1O	Aliivibrio fischeri	bioluminescence reduction, Microtox		5 min		87.5 ± 14.5 µM
CC(C)OC(=O)[C@H](Cc1ccccc1)NP(=O)(COCCn1cnc2c(=O)[nH]c(=O)[nH]c21)N[C@@H](Cc1ccccc1)C(=O)OC(C)C	herpes simplex virus 2	cytopathic effect	HEL, G			> 100 µM
COc1ccc(-n2c(SCc3ccc(S(N)(=O)=O)cc3)nnc2[C@H](Cc2ccccc2)NC(=O)Cc2c(C)[nH]c3ccccc23)cc1	HIV-2	HIV-2-induced cytopathicity, MTT	MT-4, wild type			3.42 ± 1.93 µM
Brc1ccc(-c2c[nH]c(-c3ccccn3)n2)cc1	Schistosoma mansoni	worm killing	female worms		no effect	> 100 µM
COc1ccc(-n2c(SCc3ccncc3)nnc2[C@H](Cc2ccccc2)NC(=O)Cc2c(C)[nH]c3ccccc23)cc1	HIV-2	HIV-2-induced cytopathicity, MTT	MT-4, wild type			4.27 ± 1.67 µM
CCOC(=O)[C@@H](C)NP(=O)(CO[C@H](CF)Cn1cnc(N)nc1=O)N[C@H](C)C(=O)OCC	herpes simplex virus 2	cytopathic effect	HEL, G, TK+			> 100 µM
Nc1ccn(C[C@@H](CO)OCP(=O)(O)OCCCS(=O)(=O)CCCCCCCCCCCCCC2CCC2)c(=O)n1	human gammaherpesvirus 8	qPCR	BCBL-1	7 days		0.01 ± 0.01 µM
COc1ccc(-c2nc(-c3ccccc3OC)[nH]c2-c2ccc(OC)cc2)cc1	Schistosoma mansoni	worm killing	male worms			> 100 µM
CCOC(=O)[C@@H](C)NP(=O)(CO[C@H](CF)CN1CNC(N)=NC1=O)N[C@H](C)C(=O)OCC	herpes simplex virus 2	cytopathic effect	HEL, G, TK+			> 100 µM
CO[C@H]1C[C@@H](C)C/C(C)=C/[C@@H](CC=CC(=O)NC(C)(C)C)C(=O)C[C@H](O)[C@@H](C)[C@@H](/C(C)=C/[C@@H]2CC[C@@H](O)[C@H](OC)C2)OC(=O)[C@@H]2CCCCN2C(=O)C(=O)[C@]2(O)O[C@H]1[C@@H](OC)C[C@H]2C	Human coronavirus NL63	viral replication, inhibitor, qPCR	Caco-2	48 h		4.2 µM
COc1ccc(-n2c(SCCN3CCOCC3)nnc2[C@H](Cc2ccccc2)NC(=O)Cc2c(C)[nH]c3ccccc23)cc1	HIV-2	HIV-2-induced cytopathicity, MTT	MT-4, wild type			4.98 ± 2.08 µM
CC1(CCCCCCCCCCCCCCOCCCOP(=O)(O)CO[C@H](CO)Cn2ccc(N)nc2=O)COC1	human gammaherpesvirus 8	qPCR	BCBL-1	7 days		0.03 ± 0.01 µM
O=C(O)c1ccc(Cn2c(=O)n(Cc3ccc(C(=O)NCC4COC4)cc3)c(=O)c3ccccc32)cc1	human respiratory syncytial virus	cytopathic effect	HEp-2, Long			> 50 µM
